# Measurements from different studies.
# A part holds a random share of what one study measured.
# Sequence of UniProt P07949 (whole entry, unmodified, looked up): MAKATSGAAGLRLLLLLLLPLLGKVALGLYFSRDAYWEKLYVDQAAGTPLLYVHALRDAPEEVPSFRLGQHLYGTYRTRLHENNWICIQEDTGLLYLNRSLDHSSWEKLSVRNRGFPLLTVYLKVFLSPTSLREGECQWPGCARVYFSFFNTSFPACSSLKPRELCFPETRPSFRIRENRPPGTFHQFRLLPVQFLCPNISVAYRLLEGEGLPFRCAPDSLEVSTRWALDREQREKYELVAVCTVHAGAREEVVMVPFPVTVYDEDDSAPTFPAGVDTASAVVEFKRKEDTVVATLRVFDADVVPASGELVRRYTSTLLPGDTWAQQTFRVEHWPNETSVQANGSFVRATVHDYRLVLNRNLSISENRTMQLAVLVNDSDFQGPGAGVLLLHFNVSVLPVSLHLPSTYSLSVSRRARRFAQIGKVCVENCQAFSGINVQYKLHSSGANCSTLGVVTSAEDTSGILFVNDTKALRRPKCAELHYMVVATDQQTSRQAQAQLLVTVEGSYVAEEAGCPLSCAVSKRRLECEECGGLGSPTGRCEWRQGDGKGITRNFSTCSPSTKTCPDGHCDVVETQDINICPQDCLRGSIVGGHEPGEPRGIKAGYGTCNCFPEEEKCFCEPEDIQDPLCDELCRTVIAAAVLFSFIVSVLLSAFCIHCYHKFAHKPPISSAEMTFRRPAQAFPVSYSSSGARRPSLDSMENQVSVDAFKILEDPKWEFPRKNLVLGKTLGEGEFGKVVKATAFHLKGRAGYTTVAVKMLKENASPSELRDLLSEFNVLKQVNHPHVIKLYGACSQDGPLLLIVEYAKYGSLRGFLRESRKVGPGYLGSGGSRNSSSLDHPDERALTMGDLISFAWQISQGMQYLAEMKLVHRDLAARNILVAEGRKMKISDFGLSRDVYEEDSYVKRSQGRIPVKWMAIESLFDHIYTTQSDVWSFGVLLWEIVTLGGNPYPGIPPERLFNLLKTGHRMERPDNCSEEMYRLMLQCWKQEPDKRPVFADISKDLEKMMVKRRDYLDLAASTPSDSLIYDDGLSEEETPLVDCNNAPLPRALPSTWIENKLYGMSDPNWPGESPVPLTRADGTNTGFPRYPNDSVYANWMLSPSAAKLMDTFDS
# Sequence of UniProt Q9NWZ3 (whole entry, looked up): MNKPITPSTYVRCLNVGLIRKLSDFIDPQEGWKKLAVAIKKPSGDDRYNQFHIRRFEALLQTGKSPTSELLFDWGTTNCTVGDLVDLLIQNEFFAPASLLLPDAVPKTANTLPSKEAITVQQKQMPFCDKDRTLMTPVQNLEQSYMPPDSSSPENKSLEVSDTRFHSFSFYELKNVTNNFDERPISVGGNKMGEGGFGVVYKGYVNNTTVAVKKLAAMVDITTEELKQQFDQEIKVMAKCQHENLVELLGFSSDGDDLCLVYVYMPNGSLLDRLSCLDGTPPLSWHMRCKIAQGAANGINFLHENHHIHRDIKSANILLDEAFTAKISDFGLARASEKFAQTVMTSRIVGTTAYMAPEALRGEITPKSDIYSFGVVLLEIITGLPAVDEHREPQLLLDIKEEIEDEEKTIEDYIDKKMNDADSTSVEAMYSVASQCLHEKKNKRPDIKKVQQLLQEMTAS

# Block 1
# Compound: O=C(Nc1cccnn1)N1CC(C/C=C/c2cncc(Oc3ccc(C(F)(F)F)cn3)n2)C1
# Read-out: cell-free assay
# Technique: competition with immobilised ligand
# Tested at: 1 µM
target,remaining binding [%]
"EPHA3 (Homo sapiens, UniProt P29320)",95
"MAP3K13 (Homo sapiens, UniProt O43283)",0
"EPHB4 (Homo sapiens, UniProt P54760)",100
"Tyrosine-protein kinase JAK1, JH1 (JAK1, Homo sapiens, UniProt P23458)",100
"NTRK1 (Homo sapiens, UniProt P04629)",82
"RIOK2 (Homo sapiens, UniProt Q9BVS4)",77
"AXL (Homo sapiens, UniProt P30530)",100
"NEK9 (Homo sapiens, UniProt Q8TD19)",100
"CASK (Homo sapiens, UniProt O14936)",64
"CLK3 (Homo sapiens, UniProt P49761)",100
"IRAK1 (Homo sapiens, UniProt P51617)",66
"HUNK (Homo sapiens, UniProt P57058)",89
"STK33 (Homo sapiens, UniProt Q9BYT3)",100
"PRKD2 (Homo sapiens, UniProt Q9BZL6)",100
"PIK3CG (Homo sapiens, UniProt P48736)",100
"TAOK2 (Homo sapiens, UniProt Q9UL54)",66
"IRAK4 (Homo sapiens, UniProt Q9NWZ3)",100
"NEK1 (Homo sapiens, UniProt Q96PY6)",100
"SIK3 (Homo sapiens, UniProt Q9Y2K2)",74
"PAK4 (Homo sapiens, UniProt O96013)",96
"RET (Homo sapiens, UniProt P07949, V804L)",93
"CDK8 (Homo sapiens, UniProt P49336)",100

# Block 2
# Target: Sal-like protein 4, full length isoform A (SALL4, Homo sapiens, UniProt Q9UJQ4, residues 1-1053)
# Sequence of UniProt Q9UJQ4 (whole entry, looked up): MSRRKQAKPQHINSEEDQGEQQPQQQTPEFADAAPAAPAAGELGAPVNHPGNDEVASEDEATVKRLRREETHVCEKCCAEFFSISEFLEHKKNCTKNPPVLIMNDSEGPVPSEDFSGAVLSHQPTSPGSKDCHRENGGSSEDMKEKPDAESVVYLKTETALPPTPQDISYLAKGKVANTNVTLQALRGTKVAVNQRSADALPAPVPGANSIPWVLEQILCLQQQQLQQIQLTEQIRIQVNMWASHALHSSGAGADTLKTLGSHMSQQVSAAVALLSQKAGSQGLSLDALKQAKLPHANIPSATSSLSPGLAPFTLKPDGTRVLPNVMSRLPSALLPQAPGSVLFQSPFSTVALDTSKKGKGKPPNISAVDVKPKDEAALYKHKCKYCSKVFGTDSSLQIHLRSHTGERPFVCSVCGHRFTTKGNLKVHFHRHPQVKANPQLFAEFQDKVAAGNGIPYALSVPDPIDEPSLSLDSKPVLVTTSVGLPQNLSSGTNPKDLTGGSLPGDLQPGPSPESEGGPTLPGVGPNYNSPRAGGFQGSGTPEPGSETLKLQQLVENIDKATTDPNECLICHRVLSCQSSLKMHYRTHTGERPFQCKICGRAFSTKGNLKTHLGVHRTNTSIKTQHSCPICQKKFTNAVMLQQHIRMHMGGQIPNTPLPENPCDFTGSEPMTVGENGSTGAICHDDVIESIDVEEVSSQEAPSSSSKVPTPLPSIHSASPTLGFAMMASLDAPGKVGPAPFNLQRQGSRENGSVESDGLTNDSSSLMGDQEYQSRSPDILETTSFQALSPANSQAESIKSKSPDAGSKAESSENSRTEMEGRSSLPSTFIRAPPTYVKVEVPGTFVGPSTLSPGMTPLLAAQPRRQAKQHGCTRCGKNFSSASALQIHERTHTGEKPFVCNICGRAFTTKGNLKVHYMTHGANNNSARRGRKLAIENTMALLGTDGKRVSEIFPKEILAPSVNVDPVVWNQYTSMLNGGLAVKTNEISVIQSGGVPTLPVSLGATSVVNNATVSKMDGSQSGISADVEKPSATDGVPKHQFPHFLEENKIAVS
# Technique: universal PBM
# Form: double-stranded DNA, one strand shown
# Matrix: in vitro
# Tested at: 600 nM
# Setting: 8-mer, flanks averaged, mean of replicates
# Reading: higher = stronger binding
Strand,E-score
GCCCGCAC,-0.277
AGAAATTA,0.356
ATGGTAGG,-0.104
AGGCGGTC,-0.189
CCTATCCC,-0.188
ACCCGTCA,-0.258
CACTAATG,0.112
ACCCCTAG,-0.198

# Block 3
# Target: PABPC1L2, full length, GST fusion (mouse, UniProt A0ABA7IW68)
# Technique: RNAcompete
# Form: RNA
# Matrix: in vitro
# Tested at: 20 nM
# Setting: 7-mer, probes averaged, single round
# Relative to: mean of 7-mers
# Reading: higher = stronger binding
# Construct (chain): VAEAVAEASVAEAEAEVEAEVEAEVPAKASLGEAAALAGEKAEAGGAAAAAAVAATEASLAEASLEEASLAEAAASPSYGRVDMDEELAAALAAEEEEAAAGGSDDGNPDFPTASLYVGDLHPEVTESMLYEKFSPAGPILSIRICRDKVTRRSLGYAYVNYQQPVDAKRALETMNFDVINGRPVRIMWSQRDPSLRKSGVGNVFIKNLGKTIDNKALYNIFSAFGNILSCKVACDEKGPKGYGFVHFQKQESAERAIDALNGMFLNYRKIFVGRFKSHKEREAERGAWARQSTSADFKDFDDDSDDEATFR
Strand,7-mer Z-score
AGUCGGG,-0.0591
CAGUUCA,-0.238
GCACUCA,0.0261
AUUGGCC,-0.168
GUCUAAU,-0.293
CGCUUCU,-0.365
UUGAAAG,-0.0699
ACAAUAU,0.312

# Block 4
# Target: Serine/threonine-protein kinase WNK2 (WNK2, Homo sapiens, UniProt Q9Y3S1)
# Sequence of UniProt Q9Y3S1 (whole entry, looked up): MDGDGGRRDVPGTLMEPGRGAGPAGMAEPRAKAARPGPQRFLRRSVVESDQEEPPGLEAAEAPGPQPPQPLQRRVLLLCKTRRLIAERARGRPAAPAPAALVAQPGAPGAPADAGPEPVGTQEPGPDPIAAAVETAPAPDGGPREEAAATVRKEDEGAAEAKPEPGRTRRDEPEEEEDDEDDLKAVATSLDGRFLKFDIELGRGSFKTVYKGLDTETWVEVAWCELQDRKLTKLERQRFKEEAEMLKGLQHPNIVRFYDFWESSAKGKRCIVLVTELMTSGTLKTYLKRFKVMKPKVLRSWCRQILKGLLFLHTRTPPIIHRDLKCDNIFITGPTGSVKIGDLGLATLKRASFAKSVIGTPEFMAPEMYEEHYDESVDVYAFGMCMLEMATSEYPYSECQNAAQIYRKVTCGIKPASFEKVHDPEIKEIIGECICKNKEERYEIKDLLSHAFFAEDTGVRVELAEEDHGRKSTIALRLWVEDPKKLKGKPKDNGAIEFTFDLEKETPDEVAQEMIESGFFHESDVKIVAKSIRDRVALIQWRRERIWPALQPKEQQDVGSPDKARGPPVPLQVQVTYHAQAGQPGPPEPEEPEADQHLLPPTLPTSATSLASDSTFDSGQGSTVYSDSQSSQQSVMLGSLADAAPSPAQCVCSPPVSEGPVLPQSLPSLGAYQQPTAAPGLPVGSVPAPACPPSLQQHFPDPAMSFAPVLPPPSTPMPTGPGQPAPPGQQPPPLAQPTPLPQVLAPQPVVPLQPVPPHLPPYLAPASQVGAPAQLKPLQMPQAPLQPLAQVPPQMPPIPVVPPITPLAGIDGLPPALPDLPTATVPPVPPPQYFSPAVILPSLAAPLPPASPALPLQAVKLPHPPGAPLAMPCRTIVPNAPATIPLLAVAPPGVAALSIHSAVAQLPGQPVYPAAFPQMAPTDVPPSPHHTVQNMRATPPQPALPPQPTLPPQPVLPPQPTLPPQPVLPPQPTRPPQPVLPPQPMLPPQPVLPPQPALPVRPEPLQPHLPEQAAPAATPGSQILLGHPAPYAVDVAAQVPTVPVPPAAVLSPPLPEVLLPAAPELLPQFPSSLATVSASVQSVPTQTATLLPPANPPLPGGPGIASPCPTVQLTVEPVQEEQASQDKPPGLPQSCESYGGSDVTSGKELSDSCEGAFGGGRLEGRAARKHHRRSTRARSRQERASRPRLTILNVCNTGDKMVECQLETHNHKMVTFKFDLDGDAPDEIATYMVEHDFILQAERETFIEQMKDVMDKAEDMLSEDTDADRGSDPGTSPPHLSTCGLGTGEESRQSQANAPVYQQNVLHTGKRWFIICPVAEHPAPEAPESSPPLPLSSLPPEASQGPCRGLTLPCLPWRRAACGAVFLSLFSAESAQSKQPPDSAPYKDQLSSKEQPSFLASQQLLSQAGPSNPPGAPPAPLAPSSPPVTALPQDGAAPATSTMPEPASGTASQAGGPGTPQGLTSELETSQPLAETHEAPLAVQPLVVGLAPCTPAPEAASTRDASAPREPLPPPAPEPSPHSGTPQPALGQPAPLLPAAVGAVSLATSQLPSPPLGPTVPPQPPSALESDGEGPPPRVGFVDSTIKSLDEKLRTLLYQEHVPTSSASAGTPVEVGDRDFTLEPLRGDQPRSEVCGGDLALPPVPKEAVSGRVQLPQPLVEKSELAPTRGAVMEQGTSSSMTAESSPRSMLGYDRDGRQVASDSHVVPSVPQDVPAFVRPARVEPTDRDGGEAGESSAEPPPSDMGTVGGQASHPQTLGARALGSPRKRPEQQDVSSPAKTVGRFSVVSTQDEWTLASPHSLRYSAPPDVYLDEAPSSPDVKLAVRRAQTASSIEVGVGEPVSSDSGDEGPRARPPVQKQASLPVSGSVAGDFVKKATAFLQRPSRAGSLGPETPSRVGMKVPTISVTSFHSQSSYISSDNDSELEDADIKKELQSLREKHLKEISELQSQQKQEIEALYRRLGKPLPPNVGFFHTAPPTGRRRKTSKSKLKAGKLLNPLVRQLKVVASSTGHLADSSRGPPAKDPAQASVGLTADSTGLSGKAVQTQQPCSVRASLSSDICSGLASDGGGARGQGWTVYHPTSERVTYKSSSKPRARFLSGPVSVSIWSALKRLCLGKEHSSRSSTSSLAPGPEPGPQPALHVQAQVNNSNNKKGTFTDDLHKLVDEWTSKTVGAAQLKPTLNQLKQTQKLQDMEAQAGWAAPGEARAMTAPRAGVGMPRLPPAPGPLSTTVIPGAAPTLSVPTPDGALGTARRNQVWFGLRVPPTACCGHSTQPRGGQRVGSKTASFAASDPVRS
# Read-out: enzyme activity
# Mode: inhibitor
# Tested at: 0.5 µM
# Relative to: control
Compound,remaining activity [%]
O=C(Nc1cccc(Nc2cc(Nc3cccc(C(F)(F)F)c3)ncn2)c1)C1CC1,109
Cn1sc(=O)n(Cc2ccccc2)c1=O,99.1
O=C(O)c1ccc2c3c1cccc3c(=O)n1c3ccccc3nc21,106
CN(C)c1ccc(C=C2C(=O)Nc3ccccc32)cc1,104
Nc1[nH]nc2nc3ccccc3nc12,95.9
Cc1ccc(NC(=O)c2ccc(CN3CCN(C)CC3)cc2)cc1Nc1nc(-c2cccnc2)cs1,99.2
O=c1c2ccccc2[nH]c(=S)n1CCN1CCC(=C(c2ccc(F)cc2)c2ccc(F)cc2)CC1,96.3
CNC(=O)c1cc(Oc2ccc(NC(=O)Nc3ccc(Cl)c(C(F)(F)F)c3)cc2)ccn1,101
COc1ccc(OC)c2c(=S)c3ccccc3[nH]c12,89.8
COc1ccc(CNC(=O)Nc2ncc([N+](=O)[O-])s2)cc1,104
Nc1ccc2ncnc(NCCc3ccc(Oc4ccccc4)cc3)c2c1,96.7
NCCNc1ncc(C(N)=O)c(Nc2cccc(C(F)(F)F)c2)n1,103
COc1cc2nccc(Oc3ccc(NC(=S)NC(=O)c4ccccc4C)cc3)c2cc1OC,94.1
CC(C)[C@H](CO)Nc1nc(Nc2cc(N)cc(Cl)c2)c2ncn(C(C)C)c2n1,112
